Assay results pooled from the literature.
Each numbered part is a random draw from the data of one study; scales do not carry over between parts. Substitutions count along the parent as printed.

Sample 1
Target: Interferon regulatory factor 7, full length, phosphomimetic (IRF7, Homo sapiens, UniProt Q92985, residues 1-503, S101K/S471D/S472D/S475D/S476D/S477D/S483D/S484D/S487D)
Chain of UniProt Q92985 (whole entry, unmodified, looked up): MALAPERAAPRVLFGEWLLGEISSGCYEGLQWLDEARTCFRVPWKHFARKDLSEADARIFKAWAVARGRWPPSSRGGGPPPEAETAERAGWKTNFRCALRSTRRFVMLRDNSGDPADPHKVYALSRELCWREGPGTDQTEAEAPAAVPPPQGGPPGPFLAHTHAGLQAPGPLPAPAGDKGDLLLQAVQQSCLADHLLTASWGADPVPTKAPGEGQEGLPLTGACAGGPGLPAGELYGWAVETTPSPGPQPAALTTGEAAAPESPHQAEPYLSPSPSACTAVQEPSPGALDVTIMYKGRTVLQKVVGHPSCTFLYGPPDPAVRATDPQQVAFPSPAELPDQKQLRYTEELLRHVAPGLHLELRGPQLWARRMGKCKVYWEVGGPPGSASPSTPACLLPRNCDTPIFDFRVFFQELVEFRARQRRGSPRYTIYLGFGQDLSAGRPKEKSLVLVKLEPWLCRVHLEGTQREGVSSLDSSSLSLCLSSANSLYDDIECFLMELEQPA
Method: protein-binding microarray
Form: double-stranded DNA, one strand shown
Medium: in vitro
Concentration: 250 nM
Setting: 60-bp whole probe
Added: salmon DNA 0.4 mg/ml
Reference: random background probes
Reading: higher = stronger binding
Endpoint: log fluorescence
All sequences stand within: GCCTAGCAC … GTCTTGATTCGCTTGACGCTGCTG
GACGATATCAGTTTCGAGAAGTGCTAG: 1.89 z-score
TTAGATCTCAGTTTCGAGTAGTGCTAG: 4.3 z-score
AAACAAGTTTCACGTCTTATAGTGCTA: 1.09 z-score
TCAACTTTTTTTTTTCCACTGTGCTAG: 0.674 z-score
TTGGGTCTCGGTTTCGGTTAGTGCTAG: 10.3 z-score
TTAGGACTGGTTCTCCTTTAGTGCTAG: 1.4 z-score
GACGCTCTCAGTTTCGAGACGTGCTAG: 3.63 z-score
TACGATCTCAGTATCGAGACGTGCTAG: 0.284 z-score

Sample 2
Target: RNA binding protein fox-1 homolog 2, RRM domain, GST-SBP tag (RBFOX2, Homo sapiens, UniProt O43251-10, residues 100-194)
Method: RNA Bind-n-Seq
Form: RNA
Medium: in vitro
Concentration: 365 nM
Setting: natural RNA segment, single round, ends assumed
Reference: no-protein control
Reading: higher = stronger binding
Endpoint: RBNS enrichment (R)
Residues (chain): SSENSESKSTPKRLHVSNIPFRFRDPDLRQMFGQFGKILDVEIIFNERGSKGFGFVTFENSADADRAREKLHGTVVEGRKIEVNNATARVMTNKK
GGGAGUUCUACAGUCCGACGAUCCUGCUCAUGACCCCUGAGCAGCCUGCAAUGAGGUGUGUGUGCCCAGCCACUUGGCUGGGCAGGGAGAUAGAUAGCUUCUUCCUGCAAGCUUCCAGAAGCACGCUGUGUUCUGGAAUUCUCGGGUGCCAA: 0.801
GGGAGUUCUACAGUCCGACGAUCCUUUCCUUGUAUCUUUUAAACUCAGUUCUGCAUCCAACUUGAGAAGAAAAAAAGCUUCUUUCCAUAUCAAGUACCAUAUGAGUUCAUUUAAACUGCACCUUGCAGAAAUGUGGAAUUCUCGGGUGCCAA: 1.76
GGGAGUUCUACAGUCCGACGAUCUAUAUAUAUGAUAUAUAUAUAUAUAUAAGUUCUUUUUUAGCUGUACCUACGUACUUAUAUCAGCACCAUGUAUGUAGGUGUGAUAGUACUUUCAAACAGCGCCUCCACCUUGGAAUUCUCGGGUGCCAA: 1.84
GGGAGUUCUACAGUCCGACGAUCGCAGACCCCCUAACCCUUCAGACAGGCAGUGUUUAUUUAAUGCGUAGAGUGCAGAGGGGCUCUUUUAUCCAGACCCCUCUUUGUAUCCUGGUGCCCUUGUUGACUGUCUGUGGAAUUCUCGGGUGCCAA: 0.351
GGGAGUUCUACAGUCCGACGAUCGGGAUGGAGACAUGUCAUUUGUAAAAGCAGAAAAAGGUUGCAUUUGUUCACUUUUGUAAUAUUGUCCUGGGCCUGUGUUGGGGUGUUGGGGGAAGCUGGGCAUCAGUGGCUGGAAUUCUCGGGUGCCAA: 1.07
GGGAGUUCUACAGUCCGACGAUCCCCUAUGGCUAUAACUUUAAAUAAACUAAACCAAAAAUGUUAUUGAUGUUUUAUAUAUAGAGAGUAGUCUCAUUAGUUUUUGUUACUGUAAUGUUUGAAGUCUCAAAUGCUGGAAUUCUCGGGUGCCAA: 0.578

Sample 3
Target: CCND3, cyclin fold, Cln2 fusion (human)
Method: yeast growth competition, sequencing
Medium: yeast
Setting: weak parent motif
Reference: not given
Reading: higher = stronger binding
Endpoint: normalised enrichment score
Starting sequence: WEE1 docking peptide (human); HKTFRKLRLFDTP
HKTFRKLRLFVTP [D11V]: 0.0627
HKTCRKLRLFDTP [F4C]: 0.133
HKTFRKLRVFDTP [L9V]: 0.121
HKTFRKLRLFNTP [D11N]: 0.00219
HKTFRKFRLFDTP [L7F]: 0.125
HKTFRKLRIFDTP [L9I]: 0.0661

Other studies, line by line
PhoQ, residues 284 288 289 292 302 303 GTAMQF — fold induction (PhoP, residues 12 14 15 18 19 SGWQI (Escherichia coli, UniProt P23836); Sort-seq, item: YFP reporter; E. coli; PhoQ-PhoP variant library, added: 10 µM Mg2+; reference: high Mg2+ state, higher = stronger signaling): 1.14

Some of these lines once more (sample 3):
HKTFRKLRVFDTP [L9V]: 0.121
